Measured values from different studies.
± gives the spread as reported.

Substance	test	system	setting	trough concentration
COc1cc(Nc2ncc3c(n2)-c2ccc(Cl)cc2C(c2c(F)cccc2OC)=NC3)ccc1C(=O)O	–	children without grade ≥2 toxicity, plasma	oral, 80 mg/m2, day 4, mean	1580 ± 350 nM
O=C(Nc1c(Cl)cncc1Cl)c1ccc(OC(F)F)c(OCC2CC2)c1	–	human, age ≥18 years, plasma	topical, 0.3% cream, 8 weeks	1.78 ng/mL
CN1CC[C@@H](NC(=O)Nc2ccc(C#N)cc2)C[C@@H]1c1nc2ccccc2[nH]1	–	Japanese patients, plasma	oral, 25 mg once daily, cycle 1 day 21, geometric mean	88 ng/mL
teicoplanin	–	human, standard regimen, serum	intravenous, 400 mg q12h loading, 200 mg/day, day 4	12000 ± 3760 ng/mL
COc1c(C)c2c(c(O)c1C/C=C(\C)CCC(=O)O)C(=O)OC2	–	stable kidney transplant recipients, plasma	oral, dose not given, 12 h post-dose, steady state	3000 ± 2070 ng/mL
C[C@@H](Oc1ccc(S(C)(=O)=O)cc1C(=O)N1C[C@@H]2C[C@]2(c2cc(C(F)(F)F)on2)C1)C(F)(F)F	–	human male, CSF	oral, 25 mg once daily, 312 h	21.7 nM
C[C@@H](c1ncncc1F)[C@](O)(Cn1cncn1)c1ccc(F)cc1F	–	patients, hematological disorders, CYP2C19 intermediate metabolizers, plasma	200 mg, 12 h, steady state, median	3040 ng/mL
C=C(C)[C@@H]1CC[C@]2(NCCN3CCS(=O)(=O)CC3)CC[C@]3(C)[C@H](CC[C@@H]4[C@@]5(C)CC=C(C6=CC[C@@](CF)(C(=O)O)CC6)C(C)(C)[C@@H]5CC[C@]43C)[C@@H]12	LC-MS/MS	HIV-1-infected treatment-naive adults, plasma	oral, 40 mg once daily, day 7, monotherapy	220 ng/mL

Repeated from above:
Substance	test	system	setting	trough concentration
C=C(C)[C@@H]1CC[C@]2(NCCN3CCS(=O)(=O)CC3)CC[C@]3(C)[C@H](CC[C@@H]4[C@@]5(C)CC=C(C6=CC[C@@](CF)(C(=O)O)CC6)C(C)(C)[C@@H]5CC[C@]43C)[C@@H]12	LC-MS/MS	HIV-1-infected treatment-naive adults, plasma	oral, 40 mg once daily, day 7, monotherapy	220 ng/mL
